Assay results from different studies.
Lines come from different studies, so protocols differ. Several values in a cell are separate wells, animals, samples, runs or records. ± gives the spread as reported.

Structure (SMILES) | test | system | conditions | how to read | endpoint | result
CN[C@@H]1COc2c(S(=O)(=O)NC(=O)Nc3c4c(cc5c3CCC5)CCC4)cnn2C1 | item: IL-1β | human participants, whole blood ex vivo | 300 mg twice daily, multiple doses, 156 h, added: LPS/ATP | baseline: baseline | inhibition | 95.7%
CN(C)C(=O)c1cc2cnc(Nc3ccc(N4CCNCC4)cn3)nc2n1C1CCCC1 | RNA sequencing, item: HALLMARK_INTERFERON_GAMMA_RESPONSE | MB002 tumour | concentration not given | baseline: vehicle, direction not given | GSEA enrichment score | -0.22
CCCCC1(CCCC)CN(c2ccccc2)c2cc(SC)c(OCC(=O)N[C@@H](C(=O)NCC(=O)O)c3ccccc3)cc2S(=O)(=O)C1 | item: 7α-hydroxy-4-cholesten-3-one | human, plasma | 20 mg once daily, day 7 |  | plasma C4 | 74.6 ng/mL
N=C(N)NCCC[C@H](NC(=O)[C@H](CCCNC(=N)N)NC(=O)[C@H](CCCCN)NC(=O)[C@H](CCC(N)=O)NC(=O)[C@H](CCCCN)NC(=O)[C@H](Cc1ccc(O)cc1)NC(=O)[C@@H](N)CCCCN)C(=O)N[C@@H](CO)C(=O)N[C@@H](Cc1ccc(O)cc1)C(=O)N[C@@H](CCCCN)C(=O)O |  | dentin hypersensitivity patients | 2.5 µg/tooth single, day 22 | baseline: baseline | median cold water VAS change | -35.5 mm
Cc1ccc(C(=O)OCc2ccc([C@@H](CN)C(=O)Nc3ccc4cnccc4c3)cc2)c(C)c1 | tonometry | NZW rabbit, magnetic bead-induced ocular hypertension | ocular, 0.02%, 6 h |  | IOP | 35 mmHg
CCN(Cc1nc2c(N)nc3cc(-c4cc[nH]n4)ccc3c2[nH]1)C(C)=O | Luminex, item: IL-6 | cancer patients, serum | 1200 µg monotherapy, first 24 h | baseline: baseline | fold change | 9.3
CC(C)C[C@@H](NC(=O)[C@H](C)NC(=O)CNC(=O)[C@@H](NC=O)C(C)C)C(=O)N[C@@H](C)C(=O)N[C@@H](C(=O)N[C@H](C(=O)N[C@@H](C(=O)N[C@@H](Cc1c[nH]c2ccccc12)C(=O)N[C@H](CC(C)C)C(=O)N[C@@H](Cc1c[nH]c2ccccc12)C(=O)N[C@H](CC(C)C)C(=O)N[C@@H](Cc1c[nH]c2ccccc12)C(=O)N[C@H](CC(C)C)C(=O)N[C@@H](Cc1c[nH]c2ccccc12)C(=O)NCCO)C(C)C)C(C)C)C(C)C | H+/Na+ transport, pyranine pH-gradient | EYPC/EYPG LUVs 19:1 |  |  | EC50 | 4.29 ± 0.32 nM
COc1cc(Nc2ncc3c(n2)-c2ccc(Cl)cc2C(c2c(F)cccc2OC)=NC3)ccc1C(=O)O |  | mouse, NB-1771 neuroblastoma xenograft | oral, 5.2 mg/kg, day 21 | baseline: vehicle | relative tumour volume T/C | 2.08
Cc1c(C)n(Cc2cccc(OC(C)(C)C(=O)O)c2)c2ccc(C(=O)N[C@@H](C)c3ccc(C(C)(C)C)cc3)cc12 |  | C57BL/6 mice, diet-induced obese, L4 vertebra | dose not given |  | marrow fat volume/total volume | 0%
NCC(=O)Nc1cncc(-c2nn3c(=O)cc(N4CCNCC4)nc3s2)c1 | ADP-induced platelet aggregation, light transmission aggregometry | human, stable CAD on aspirin, ex vivo platelets | subcutaneous, 0.05 mg/kg, 5 min post-dose, median value, added: ADP 20 µM |  | inhibition | 23.8%
O=C1N(Cc2ccccc2Cl)c2ccccc2C12NN=C(c1ccccc1)S2 (stereo not drawn) |  | MDA-MB-468 xenograft, mouse | intravenous, 1296 mg/kg twice daily, subcutaneous xenograft | baseline: vehicle | T/C | 77%
C[C@H]1C[C@H]2CSC(N)=N[C@@]2(c2nc(NC(=O)c3ccc(OC(F)F)cn3)cs2)CO1 | item: Aβ1-40 | healthy adults, plasma | 275 mg once daily, day 4 | baseline: placebo | percent change from baseline | -87.3%
COC(=O)c1c(C)[nH]c(C)c1C(=O)c1ccccc1Cc1ccccc1 | high-content microscopy | DRG neurons, rat | dose not given, unit not given, added: DAMGO 3 | baseline: no DAMGO | serotonin-induced response | 0.343 and 0.353 and 0.521 and 0.41
O=c1cc(-c2ccc(O)cc2)oc2c([C@@H]3OC[C@H](O)[C@H](O)[C@H]3O)c(O)c([C@@H]3O[C@H](CO)[C@@H](O)[C@H](O)[C@H]3O)c(O)c12 | RT-qPCR | HFpEF mice, AngII-treated, heart | dose not given | baseline: AngII alone | BNP mRNA level | decreased
CCO |  | supine | median |  | time to maximum SBP change | 1.97 h
C[C@@H](O)CCOC(=O)C[C@@H](C)O | item: C20 acylcarnitine | human, plasma | 60 min, log2-transformed values |  | metabolite level | -7.77 ± 0.68 µmol/L
Cc1cc(-c2nc(C(=O)Nc3cc4oc(N5CCOCC5)nc4nc3N3CC[C@@H](O)C3)co2)ccn1 | 3D immunohistochemistry, CLARITY, item: phospho-ERK1/2 | mouse, intracranial A20 tumour | dose not given | baseline: total cells | pERK1/2 positive cells | 5.3%
COCCOc1cnc2ccn([C@H](C)c3nnc4c(F)cc(-c5cnn(C)c5)cn34)c(=O)c2c1 |  | patients with advanced solid tumours, partial responders | dose not given, RECIST response, median |  | time to partial response | 119 days
OC(CCN1CCCCC1)(c1ccccc1)C1CC2C=CC1C2 (stereo not drawn) | resting-state EEG | healthy elderly humans | oral, 4 mg, eyes closed, LS mean | baseline: baseline | change, Alpha EEG power, in O2-Pz | -23.1%
c1ccc(-c2n[nH]cc2-c2ccnc3ccccc23)nc1 | kinase binding, competitor, MIB/MS competition, item: CKA1 | Candida albicans cell lysate | 10 µM | baseline: DMSO | log2 fold change | 0.0811
CSCCNc1nc(SCCC(F)(F)F)nc2c1ncn2[C@@H]1O[C@H](COP(=O)(O)OP(=O)(O)C(Cl)(Cl)P(=O)(O)O)[C@@H](O)[C@H]1O | platelet aggregation, light transmittance aggregometry | human, platelet-rich plasma | dose not given, 30 min, IPA above 90 %, added: TRAP 15 µM | baseline: patients | patients with IPA above threshold | 0%
O=C1CCc2ccc(OCCCCN3CCN(c4cccc(Cl)c4Cl)CC3)cc2N1 |  | patients CYP2D6 IM | 6 months |  | stopping or switching | 42%
CC(C)[C@H](C(=O)Nc1ccc(C(=O)NO)cc1)c1ccccc1 | MRI volumetry | human, right IAC schwannoma | dose not given, day 1143 post-treatment |  | tumour volume | 0.0236 cm³
O=C1c2ccncc2C(=O)c2c1[nH]c1ccccc21 |  | female monocrotaline PAH rat | dose not given | baseline: vehicle | cardiac index | increased

Structure (SMILES) | test | system | conditions | how to read | endpoint | result
CC(C)NCC(O)c1ccc(O)c(O)c1 (stereo not drawn) |  | ventricular cardiomyocytes, C57BL/6 mouse | dose not given, 0.584 s |  | sarcomere length | 1.61 µm
N#Cc1ccc2c(c1)[C@H]1CCCN(C(=O)c3ccc4[nH]cnc4c3)[C@H]1C2 |  | T2DM patients with overweight or obesity, urine | oral, 240 mg, day 14, 0-24 h, multiple dosing, adjusted geometric mean | baseline: baseline day -1, -24-0 h | total urinary corticosteroid excretion | 188%
N#Cc1ccn2c(-c3ccncc3)c(-c3ccc(F)cc3)nc2c1 | kinase binding, competitor, MIB/MS competition, item: PBS2 | Candida albicans cell lysate | 1 µM | baseline: DMSO | log2 fold change | -0.223
NC(=O)c1cnc2[nH]ccc2c1N[C@@H]1[C@@H]2CC3C[C@H]1C[C@@](O)(C3)C2 | flow cytometry | Japanese healthy men, blood | oral, 30 mg twice daily, 72 h after day 7 dose | baseline: baseline | CD4+ effector memory change | 0.03%
C[C@@H](NC(=O)N1C(=O)[C@H](Cc2ccnc(N)c2)[C@H]1C(=O)O)C1CCCCC1 |  | human | iv infusion, 2.25 mg/kg/h, 24 h |  | ACT Emax | 125 s
N#Cc1ccc2c(c1)[C@H]1CCCN(C(=O)c3ccc4[nH]cnc4c3)[C@H]1C2 |  | human, Phase II trial | oral, 80 mg once daily, day 28, adjusted mean, SE |  | body weight change from baseline | 0.29 kg
Cc1ccc(C(=O)Nc2ccnc(S(N)(=O)=O)c2)c(N2CCCC(F)(F)CC2)n1 |  | Macaca mulatta, C-nociceptors | intravenous, 0.6 mg/kg bolus then 0.8 mg/kg/h, 60 min |  | conduction velocity | 100 ± 1.19 % baseline
COc1ccc(-c2cncc(N[C@@H](C)c3cccc(NC(=O)c4cncc(C)c4)c3)n2)cc1OC | item: rno-miR-369-3p | rat SU5416/hypoxia model, lung | dose not given | baseline: SU5416/hypoxia vehicle | fold change | 1.18
Cn1cc(Nc2nccc(-c3ccc4c(c3)CN(C3COC3)CC[C@H]4NC(=O)c3cn(C(C)(C)C)nn3)n2)cn1 | item: inflammasome pathway | splenic B cells, mice | 30 mg/kg, IgD-activated in vivo | baseline: vehicle, direction not given | pathway activation z-score | 2
[Cl-].[Cl-].[Pt+2].[Ru+2].c1ccc(-c2nccnc2-c2ccccn2)nc1.c1cnc2c(c1)ccc1cccnc12.c1cnc2c(c1)ccc1cccnc12 | chloride substitution, UV-vis kinetics | aqueous buffer | concentration not given, pH 7.2, second substitution step, added: thiourea |  | negative activation entropy | 147 ± 8 J/(mol·K)
CCO[C@H]1CCN(Cc2c(OC)cc(C)c3[nH]ccc23)[C@H](c2ccc(C(=O)O)cc2)C1 | item: PNH-type erythrocytes | PNH patients, blood | 25 mg/100 mg, week 2, mean |  | PNH red cell clone size | 54.9%
C[C@H](Oc1ccc(Br)cc1-c1ccon1)C(=O)O | handgrip dynamometry | healthy human males | 400 mg twice daily, multiple doses, from 90% to 5% of MVC | baseline: placebo | grip release time | -33.4 ms
COc1cc2cc(-c3ccc(CC(=O)Nc4cc(C(C)(C)C(F)(F)F)no4)cn3)cnc2cc1OC | RECIST v1.1 | human RET-altered solid tumours | 75 mg, phase I pooled |  | best overall response PD | 26%
Cc1n[nH]c2ccc(-c3cc(OC[C@@H](N)Cc4ccccc4)cnc3-c3ccoc3)cc12 | kinase binding, competitor, MIB/MS competition, item: NPR1 | Candida albicans cell lysate | 10 µM | baseline: DMSO | log2 fold change | -0.75
[Cl-].[Cl-].[Pt+2].[Ru+2].c1ccc(-c2nc3cc4ccccc4cc3nc2-c2ccccn2)nc1.c1cnc2c(c1)ccc1cccnc12.c1cnc2c(c1)ccc1cccnc12 | chloride substitution, UV-vis kinetics | aqueous buffer | concentration not given, pH 7.2, first substitution step, added: L-methionine |  | negative activation entropy | 171 ± 5 J/(mol·K)
COc1ccc(C2=N[C@@H](c3ccc(Cl)cc3)[C@@H](c3ccc(Cl)cc3)N2C(=O)N2CCNC(=O)C2)c(OC(C)C)c1 | echocardiography | Dmd C3333Y mouse | dose not given |  | ejection fraction | 46.2% and 51.5% and 50.2% and 53.3% and 49.2%
C[C@H](CS)C(=O)N1CCC[C@H]1C(=O)O |  | mouse, unilateral ureteral obstruction, right kidney (control) | dose not given |  | fibrosis area | 0.6% and 1.07% and 0.91% and 0.66% and 1.16% and 0.82%
CN(C(=O)n1cnc(-c2ccc[n+]([O-])c2)c1)C1CCCCC1 | item: OEA | human, plasma | 5 mg once daily, day 10 |  | AUC(0-tau) | 274 ng·h/mL
CN(C)C(=O)Oc1cccc([N+](C)(C)C)c1 | neuromuscular block reversal | rat | dose not given, 10 (unit not given), added: cisatracurium | baseline: T1 twitch | train-of-four ratio | 77.3
C=CCn1c(=O)c2cnc(Nc3ccc(N4CCN(C)CC4)cc3)nc2n1-c1ccc2c(n1)[C@@](O)(CC)CC2 |  | OVCAR-8 xenograft, BALB/c nude mice | oral, 80 mg/kg, day 33, once daily 7 d on, 7 d off x 2 |  | tumour growth inhibition | 36.8%
O=C(O)c1ccc(-n2cc(CNc3ccc(Cl)c(C(F)(F)F)c3)c(-c3cccc(F)c3)n2)cc1 |  | Caenorhabditis elegans, S. aureus infected | 1 µg/mL, 5 days |  | survival | ~60%
O=C(O)CNC(=O)Cc1ccccc1 |  | ventricular cardiomyocytes, C57BL/6 mouse | dose not given, 0.232 s |  | sarcomere length | 1.63 µm
O[C@H]1CCCN[C@@H]1CCCn1cnc2c(Cl)c(Cl)ccc21 | ELISA, item: Pro-C3 | healthy human volunteers, serum | intraduodenal, 200 mg twice daily, day 14, multiple ascending dose |  | maximum reduction | 38.8%
C[C@H]1O[C@@H](O[C@H]2CC[C@@]3(C)[C@@H](CC[C@]4(C)[C@@H]3C=C[C@]35OC[C@@]6(CCC(C)(C)C[C@H]63)[C@@H](O)C[C@]54C)[C@]2(C)CO)[C@H](O)[C@@H](O[C@@H]2O[C@H](CO)[C@@H](O)[C@H](O)[C@H]2O)[C@H]1O |  | pair-fed control mice, no ethanol, plasma | oral, 15 mg/kg/day |  | ALT activity | 22.7 U/L and 21 U/L and 28.9 U/L and 20.9 U/L and 20.4 U/L

Excerpt of the above:
Structure (SMILES) | test | system | conditions | how to read | endpoint | result
C[C@H]1C[C@H]2CSC(N)=N[C@@]2(c2nc(NC(=O)c3ccc(OC(F)F)cn3)cs2)CO1 | item: Aβ1-40 | healthy adults, plasma | 275 mg once daily, day 4 | baseline: placebo | percent change from baseline | -87.3%
C[C@@H](NC(=O)N1C(=O)[C@H](Cc2ccnc(N)c2)[C@H]1C(=O)O)C1CCCCC1 |  | human | iv infusion, 2.25 mg/kg/h, 24 h |  | ACT Emax | 125 s
[Cl-].[Cl-].[Pt+2].[Ru+2].c1ccc(-c2nc3cc4ccccc4cc3nc2-c2ccccn2)nc1.c1cnc2c(c1)ccc1cccnc12.c1cnc2c(c1)ccc1cccnc12 | chloride substitution, UV-vis kinetics | aqueous buffer | concentration not given, pH 7.2, first substitution step, added: L-methionine |  | negative activation entropy | 171 ± 5 J/(mol·K)
NCC(=O)Nc1cncc(-c2nn3c(=O)cc(N4CCNCC4)nc3s2)c1 | ADP-induced platelet aggregation, light transmission aggregometry | human, stable CAD on aspirin, ex vivo platelets | subcutaneous, 0.05 mg/kg, 5 min post-dose, median value, added: ADP 20 µM |  | inhibition | 23.8%
